Measurements pooled from the literature.
Each numbered part is a random draw from the data of one study; scales do not carry over between parts. Values joined by “and” are separate records of one study, mostly repeats; a detail may differ. ≈ marks a conversion by molar mass, not a printed value.

Set 1
SMILES: C#CCN1C(=O)C(O)(C(=O)O)Oc2cc(F)ccc21 (centres unmarked)
Organism: Arabidopsis thaliana
Strain: Col-0
Notes: seed germination, single repetition
It gave 0.94 cm and 0.92 cm and 0.88 cm and 0.98 cm for hypocotyl length (50 µg/mL).
The hypocotyl length was 2.14 cm and 2.15 cm and 2.17 cm and 2.25 cm (3.125 µg/mL).
The hypocotyl length was 1.71 cm and 1.66 cm and 1.68 cm and 1.62 cm and 1.82 cm (12.5 µg/mL).

Set 2
Structure (SMILES): CCCCC[C@@H]1CC(=O)N[C@@H](C(C)C)C(=O)N[C@H](CCCNC(=N)N)C(=O)N[C@@H](C(C)C)C(=O)NCC(=O)N2CCC[C@H]2C(=O)N[C@@H](CC(C)C)C(=O)N[C@H](CCCNC(=N)N)C(=O)N[C@@H](CCC(=O)O)C(=O)N[C@H](Cc2ccc(O)cc2)C(=O)N[C@H](Cc2c[nH]c3ccccc23)C(=O)NCCCC(=O)O1
Organism: Staphylococcus aureus
Strain: USA300
The MIC was 2 µg/mL (≈ 1.35 µM) (added: menaquinone 0.25 µg/mL).
It gave 2 µg/mL (≈ 1.35 µM) for MIC (added: menaquinone 0.125 µg/mL).
The MIC was 1 µg/mL (≈ 0.674 µM) (added: ubiquinone 0 µg/mL).
For added: menaquinone 0.5 µg/mL: MIC read 4 µg/mL (≈ 2.7 µM).
It gave 32 µg/mL (≈ 21.6 µM) for MIC (added: menaquinone 8 µg/mL).
It gave greater than 64 µg/mL for MIC (added: menaquinone 32 µg/mL).
added: menaquinone 1 µg/mL — MIC: 8 µg/mL (≈ 5.39 µM).
For added: ubiquinone 64 µg/mL: MIC read 1 µg/mL (≈ 0.674 µM).

Set 3
Target: Membrane-associated tyrosine- and threonine-specific cdc2-inhibitory kinase (PKMYT1, Homo sapiens, UniProt Q99640)
UniProt Q99640, sequence (whole entry, looked up): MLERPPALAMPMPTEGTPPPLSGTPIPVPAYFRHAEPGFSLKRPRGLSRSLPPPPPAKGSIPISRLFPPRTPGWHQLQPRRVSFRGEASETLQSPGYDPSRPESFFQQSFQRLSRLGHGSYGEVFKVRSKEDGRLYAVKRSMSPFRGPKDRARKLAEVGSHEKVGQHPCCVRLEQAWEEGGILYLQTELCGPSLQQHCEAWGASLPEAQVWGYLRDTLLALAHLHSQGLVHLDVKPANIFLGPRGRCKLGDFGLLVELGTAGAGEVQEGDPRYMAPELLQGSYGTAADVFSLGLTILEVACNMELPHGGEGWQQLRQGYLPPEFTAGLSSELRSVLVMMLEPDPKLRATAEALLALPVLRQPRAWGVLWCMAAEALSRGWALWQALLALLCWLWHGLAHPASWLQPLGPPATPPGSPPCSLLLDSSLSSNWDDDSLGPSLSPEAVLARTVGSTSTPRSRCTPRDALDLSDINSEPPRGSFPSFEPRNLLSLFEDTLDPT
Read-out: binding
Technique: HTRF
Tested at: 0.46 nM
The inhibition of `Cc1ccc(O)c(C)c1-c1cnc2[nH]c(-c3cnc(N4CCC(CN5CCN(c6ccc(N7CCC(=O)NC7=O)cc6F)CC5)CC4)nc3)cc2c1C#N` is reported as 3.23% and 2.02%.
`Cc1ccc(O)c(C)c1-c1cnc2[nH]c(-c3cnc(N4CCC(CN5CCN(c6ccc7c8c(cccc68)C(=O)N7C6CCC(=O)NC6=O)CC5)CC4)nc3)cc2c1C#N` (racemic) gave an inhibition of -0.6% and -2.26%.
The inhibition of `Cc1ccc(O)c(C)c1-c1cnc2[nH]c(-c3cnc(N4CCC(CN5CCN(c6ccc(C(=O)NC7CCC(=O)NC7=O)c(F)c6)CC5)CC4)nc3)cc2c1C#N` (racemic) is reported as -1.68% and -1.36%.

Set 4
Compound: Cn1cc(-c2cccc(CN3CCC4(CC3)COc3c4ccc4c3CN([C@@H]3CCC(=O)NC3=O)C4=O)c2)cn1
Target: CRBN/Zinc finger protein Helios (Homo sapiens, UniProt Q96SW2+Q9UKS7)
UniProt Q9UKS7, sequence (whole entry, looked up): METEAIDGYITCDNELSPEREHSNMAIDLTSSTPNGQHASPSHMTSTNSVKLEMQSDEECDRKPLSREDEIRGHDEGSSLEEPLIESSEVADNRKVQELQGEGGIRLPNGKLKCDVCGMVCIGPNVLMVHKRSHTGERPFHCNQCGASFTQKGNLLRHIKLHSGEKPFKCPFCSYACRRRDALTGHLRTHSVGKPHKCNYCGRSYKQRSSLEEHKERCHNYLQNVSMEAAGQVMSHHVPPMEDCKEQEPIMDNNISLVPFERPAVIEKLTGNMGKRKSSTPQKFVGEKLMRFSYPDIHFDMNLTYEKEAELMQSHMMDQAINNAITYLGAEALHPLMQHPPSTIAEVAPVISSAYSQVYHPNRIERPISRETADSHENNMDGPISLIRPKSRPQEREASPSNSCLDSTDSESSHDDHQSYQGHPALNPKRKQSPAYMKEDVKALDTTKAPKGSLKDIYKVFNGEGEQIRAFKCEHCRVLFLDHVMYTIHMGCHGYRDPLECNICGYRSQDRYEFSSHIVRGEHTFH
UniProt Q96SW2, sequence (whole entry, looked up): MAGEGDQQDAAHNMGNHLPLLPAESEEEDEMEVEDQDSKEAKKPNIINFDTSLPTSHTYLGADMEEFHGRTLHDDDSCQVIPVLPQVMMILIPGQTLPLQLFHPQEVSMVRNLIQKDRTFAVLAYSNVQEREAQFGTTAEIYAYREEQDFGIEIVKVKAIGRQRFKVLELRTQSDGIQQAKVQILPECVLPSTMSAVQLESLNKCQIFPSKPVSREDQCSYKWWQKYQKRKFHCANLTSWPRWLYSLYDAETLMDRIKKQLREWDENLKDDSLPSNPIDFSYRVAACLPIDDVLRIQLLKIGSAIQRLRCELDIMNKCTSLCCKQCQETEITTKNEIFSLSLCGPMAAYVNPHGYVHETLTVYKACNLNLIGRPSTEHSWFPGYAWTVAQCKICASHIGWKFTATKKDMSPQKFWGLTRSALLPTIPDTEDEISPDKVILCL
Mode: degrader
Technique: HiBiT
Cells: HEK293
It gave 96.2% and 107% for protein remaining (0.05081 nM).
For 111.1 nM: protein remaining read 14.2% and 17.1%.
For 1000 nM: protein remaining read 8.8% and 10.7%.
For 4.115 nM: protein remaining read 52.6% and 47.9%.
1.372 nM — protein remaining: 83% and 77%.
It gave 84.3% and 96.7% for protein remaining (0.1524 nM).

Repeated from above (set 2):
The MIC was 1 µg/mL (≈ 0.674 µM) (added: ubiquinone 0 µg/mL).
For added: menaquinone 0.5 µg/mL: MIC read 4 µg/mL (≈ 2.7 µM).
